Published values pooled from the literature.
Numbered parts are unrelated; each lists some results of a single study.

Study 1
Target: PABPC1L2, full length, GST fusion (mouse, UniProt A0ABA7IW68)
Method: RNAcompete
Form: RNA
Medium: in vitro
Concentration: 20 nM
Notes: 7-mer, probes averaged, single round
Relative to: mean of 7-mers
Direction: higher = stronger binding
Residues (chain): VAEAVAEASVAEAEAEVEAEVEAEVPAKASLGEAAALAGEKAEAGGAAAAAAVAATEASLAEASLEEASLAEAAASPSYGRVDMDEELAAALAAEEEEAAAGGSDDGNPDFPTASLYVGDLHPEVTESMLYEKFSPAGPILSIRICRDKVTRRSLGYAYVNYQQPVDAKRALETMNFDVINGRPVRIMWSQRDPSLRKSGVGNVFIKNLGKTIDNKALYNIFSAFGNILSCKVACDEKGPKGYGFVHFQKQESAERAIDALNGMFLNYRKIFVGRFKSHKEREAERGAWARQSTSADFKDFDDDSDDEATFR
For `CUGAAGC`, the 7-mer Z-score was -0.0573.
`AUAUAUU` gave a 7-mer Z-score of -0.162.
For `CUCCCGU`, the 7-mer Z-score was -0.402.
For `AAGAUCG`, the 7-mer Z-score was 0.456.
The 7-mer Z-score of `AGCAUAA` is reported as 0.648.
`GAUGUGG` has a 7-mer Z-score of -0.0192.
For `CUGCCGA`, the 7-mer Z-score was -0.106.
With `UUGUGAC` the 7-mer Z-score was -0.208.
`GUCCUGG` has a 7-mer Z-score of -0.184.
The 7-mer Z-score of `UCUACAU` is reported as -0.34.
With `GGCAAAG` the 7-mer Z-score was 0.506.
`UGCCCCU` gave a 7-mer Z-score of -0.284.
`AUCUUUU` gave a 7-mer Z-score of -0.0228.
For `CGCUUAU`, the 7-mer Z-score was -0.325.
`CUGCUCU` has a 7-mer Z-score of -0.365.
The 7-mer Z-score of `AAUGAAU` is reported as 0.0805.

Study 2
Target: Histone acetyltransferase KAT6A, winged helix 2, GST fusion (KAT6A, Homo sapiens, UniProt Q92794, residues 85-181)
Method: protein binding microarray
Form: double-stranded DNA, one strand shown
Medium: in vitro
Concentration: not given
Notes: 8-mer, flanks averaged, mean of 2 arrays, mostly near background
Relative to: not given
Direction: higher = stronger binding
Target sequence (chain): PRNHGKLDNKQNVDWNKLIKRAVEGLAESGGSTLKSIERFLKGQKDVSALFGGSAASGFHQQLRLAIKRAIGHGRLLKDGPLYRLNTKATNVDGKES
With `CGTATCAA` the E-score was -0.0487.
`CAATATTA` gave an E-score of 0.117.
For `AGCGCGGG`, the E-score was 0.211.
`GAAGCACA` has an E-score of 0.12.
With `AAGTAAAA` the E-score was 0.0581.
For `CCTGTGCG`, the E-score was 0.0846.
`CGCGACGC` has an E-score of 0.164.
`CCGACCAG` gave an E-score of -0.0454.
`CATCGACC` has an E-score of 0.0498.
With `ACCTCCGC` the E-score was 0.046.
`AGCCAATG` gave an E-score of -0.0422.
`CTAGGAGC` has an E-score of 0.111.
`TAGTTCCA` has an E-score of 0.093.
The E-score of `ATCGGGAG` is reported as 0.118.
The E-score of `AATCATAA` is reported as 0.0683.
The E-score of `AGGTAGAC` is reported as -0.0997.
The E-score of `GCCGATCC` is reported as 0.0491.
`AAAGGACA` gave an E-score of -0.0675.

Study 3
Target: Sal-like protein 4, full length isoform A (SALL4, Homo sapiens, UniProt Q9UJQ4, residues 1-1053)
Sequence of UniProt Q9UJQ4 (whole entry, looked up): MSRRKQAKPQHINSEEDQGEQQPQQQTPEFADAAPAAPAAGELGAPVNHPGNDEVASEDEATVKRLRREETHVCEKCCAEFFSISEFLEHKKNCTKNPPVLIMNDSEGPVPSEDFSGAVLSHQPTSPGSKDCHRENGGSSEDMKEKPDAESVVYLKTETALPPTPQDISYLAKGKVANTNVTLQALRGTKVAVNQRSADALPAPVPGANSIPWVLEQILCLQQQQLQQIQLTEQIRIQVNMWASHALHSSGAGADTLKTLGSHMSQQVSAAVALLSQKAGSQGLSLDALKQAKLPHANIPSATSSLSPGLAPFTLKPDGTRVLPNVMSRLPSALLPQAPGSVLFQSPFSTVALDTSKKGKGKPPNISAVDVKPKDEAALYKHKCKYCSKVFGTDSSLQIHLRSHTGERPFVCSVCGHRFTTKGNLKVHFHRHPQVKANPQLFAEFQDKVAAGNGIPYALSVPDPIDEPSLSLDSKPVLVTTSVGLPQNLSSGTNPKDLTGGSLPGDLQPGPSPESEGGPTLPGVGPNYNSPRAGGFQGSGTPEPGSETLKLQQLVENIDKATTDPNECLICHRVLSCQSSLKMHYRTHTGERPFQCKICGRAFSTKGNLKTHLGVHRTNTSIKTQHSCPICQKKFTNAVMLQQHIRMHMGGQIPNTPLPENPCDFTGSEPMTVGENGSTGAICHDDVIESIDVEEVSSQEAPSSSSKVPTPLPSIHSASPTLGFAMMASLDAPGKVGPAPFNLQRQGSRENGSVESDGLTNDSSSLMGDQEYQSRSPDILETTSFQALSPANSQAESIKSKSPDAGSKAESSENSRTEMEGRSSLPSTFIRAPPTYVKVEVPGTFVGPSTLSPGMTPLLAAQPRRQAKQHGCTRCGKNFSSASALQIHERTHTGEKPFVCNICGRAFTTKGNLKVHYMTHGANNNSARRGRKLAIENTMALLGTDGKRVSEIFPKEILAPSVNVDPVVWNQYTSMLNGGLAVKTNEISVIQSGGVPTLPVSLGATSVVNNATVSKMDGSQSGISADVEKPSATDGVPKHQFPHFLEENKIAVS
Method: universal PBM
Form: double-stranded DNA, one strand shown
Medium: in vitro
Concentration: 600 nM
Notes: 8-mer, flanks averaged, mean of replicates
Direction: higher = stronger binding
For `AGAGTGAG`, the E-score was 0.0633.
For `CTCTGCAA`, the E-score was 0.0823.
With `ACATTCTA` the E-score was 0.158.
`TACGGTCA` has an E-score of -0.0651.
With `GAGAACCC` the E-score was -0.233.
The E-score of `ACCTTTCA` is reported as -0.0614.
With `AATGGGAC` the E-score was -0.135.
`CCCCTCTC` gave an E-score of -0.323.
`AAGCCGGG` has an E-score of -0.291.
With `AGGTTTAA` the E-score was 0.167.
With `TTCTTAAA` the E-score was 0.149.
The E-score of `ACTTTACG` is reported as 0.217.
`GCACGACC` has an E-score of -0.27.
The E-score of `AAAATCGC` is reported as 0.142.
`ATGGCGCA` has an E-score of -0.0957.
The E-score of `GAAAAGTA` is reported as 0.219.
The E-score of `TCTGAAGA` is reported as -0.0435.
`CGATTTGC` has an E-score of -0.0656.

Study 4
Target: RING finger protein unkempt homolog, zinc fingers 1-6, GST-SBP tag (UNK, Homo sapiens, UniProt Q9C0B0, residues 30-357)
Method: RNA Bind-n-Seq
Form: RNA
Medium: in vitro
Concentration: not given
Notes: RNA with constant flanks, human-mouse chimeric sites, ends assumed
Relative to: input RNA pool
Direction: higher = stronger binding
Construct (chain): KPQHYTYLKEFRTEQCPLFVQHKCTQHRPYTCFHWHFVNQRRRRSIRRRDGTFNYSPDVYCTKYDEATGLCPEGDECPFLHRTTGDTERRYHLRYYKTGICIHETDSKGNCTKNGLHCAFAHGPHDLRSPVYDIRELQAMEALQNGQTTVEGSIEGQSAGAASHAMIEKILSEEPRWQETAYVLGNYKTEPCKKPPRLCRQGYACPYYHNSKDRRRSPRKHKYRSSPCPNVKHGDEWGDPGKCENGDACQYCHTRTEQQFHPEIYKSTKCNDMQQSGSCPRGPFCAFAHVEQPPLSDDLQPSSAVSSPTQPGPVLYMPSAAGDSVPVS
`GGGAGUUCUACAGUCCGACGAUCGACAGUGAAGGCCCACUGUGUGAAUUGCUUUUUUUCUUCCUGACUGCAAUCUUCCAGGCGAUGGCUGAAGAAGAAGAGGAAGUAGCCAAAGAGCAGAUAACUGAUGCUGACACCAAAGAUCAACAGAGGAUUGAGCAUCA` has a bound/input enrichment of 0.0659 ratio.
For `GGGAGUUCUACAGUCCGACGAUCUAAGUUAUUUUGUACAGCUUUGUAAAUUGUAUAGCUUUUUAUAUUGCCAUGUUUAUUUUUUUUAGAUAAUUUGGUUCAUUAAGUACAUAGCUAAGGUAAUGAACAUCUUUUUCAGUAAUUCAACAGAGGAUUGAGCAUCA`, the bound/input enrichment was 2.58 ratio.
`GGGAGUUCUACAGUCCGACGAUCAUAGAUGAAAUUGAUGUAGAUCAGGAAGGAAUUGCUGAAAUGAUCCUGGAUGAAAAUGCUAUUGCUCAGGUCCCACGCCCUGGCACAUCUUUGAAACUCCCUGGCACUAACCAAACAGGACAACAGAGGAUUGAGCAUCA` gave a bound/input enrichment of 0.468 ratio.
The bound/input enrichment of `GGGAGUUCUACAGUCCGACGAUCAUGGAGAAGGAUUCUCUGCCUCGCUUUGUGCGCUCUGAAUUUUAUAAGGAGCUAAUCAAGUAGUCAUCUGGUCAGGCUUCCAAAAGUUGCCCUGUGAGUUGAGUUACAUAAUAACCCGCACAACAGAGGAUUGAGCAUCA` is reported as 0.138 ratio.
`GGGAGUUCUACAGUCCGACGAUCGUAGCUGGCCAUUAGGAAAUGCUGGUAAUUUCAGUCACUUGCUGAUGACUUCUGAUGUCCCAGCAAAUGUUGGCAUUGUUGACUGCUCUGUGAAGACUUCUGAGGACCCACGUCUAAGGUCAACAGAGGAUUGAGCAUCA` has a bound/input enrichment of 0.314 ratio.
With `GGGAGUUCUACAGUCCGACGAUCGAAAGAGAACUAAAGCAACUAAUAGAGAAGAGGAUUGGCAAAGAGAAUUUCAUAGAGAAACUAGGAUUUAUUAGCAAACAUGAGUUAGUAUUCCAGACGUCUCAGAAACCCCAGCCAAACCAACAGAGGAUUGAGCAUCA` the bound/input enrichment was 2.06 ratio.
`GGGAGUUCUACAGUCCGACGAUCGCUCCUCCCCGCUCUGCAGCCUGGGGACACUGGGCUGGGACCAGAAUCUUAUUUUUUUUUAAAACUCUAUAUUUUUUUGUAUCCCGUGACAUUUCAUUUUUUUUAAAUAGUGUAUUUUUUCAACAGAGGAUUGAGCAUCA` gave a bound/input enrichment of 18.2 ratio.
For `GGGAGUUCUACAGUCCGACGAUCUUCAAAGAAAAGGGCAGCUGUGUCAUUACUUGGGAGACUCUGGGGGAGGGAAAUUCUGUUCUUUUGUUUAAUUUUCCCCCAGAUAAAGCCAAAGUGUGUGUUGAAGAACUGAGAAAAAAUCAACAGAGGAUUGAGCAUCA`, the bound/input enrichment was 0.326 ratio.

Study 5
Target: RNA binding protein fox-1 homolog 2, RRM domain, GST-SBP tag (RBFOX2, Homo sapiens, UniProt O43251-10, residues 100-194)
Method: RNA Bind-n-Seq
Form: RNA
Medium: in vitro
Concentration: 365 nM
Notes: natural RNA segment, single round, ends assumed
Relative to: no-protein control
Direction: higher = stronger binding
Target sequence (chain): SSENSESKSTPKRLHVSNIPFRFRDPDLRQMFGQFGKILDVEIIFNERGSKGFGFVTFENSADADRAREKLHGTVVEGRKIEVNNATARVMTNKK
Under “RBNS enrichment (R)”, `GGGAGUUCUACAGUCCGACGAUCAAGGUAAGGCGGGGAGUGACUGAAUAAACUCUGCCUUUUAAAUUGAGCAUCUGGGCCGGGCAUGGUGGCUCACGCCUGUAAUCCCAGCACUCUGGGAGGUCGAGGUGGGUUGGAAUUCUCGGGUGCCAA` is recorded as 5.37.
For `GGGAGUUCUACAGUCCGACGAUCUCUUCCUCAUUCAUUCUUUAUCAUCCUGUGUUCUGUUUAGUUGCAACAAUCUCUUGUGACUAAUGUCACUCAAAGCAUCUUGUAAAUCCUAGGGCUUCCUGGAAGUUAGUUGGAAUUCUCGGGUGCCAA`, “RBNS enrichment (R)” read 1.45.
`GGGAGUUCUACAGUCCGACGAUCCAUUUCAAAUGAGGUAUAUUUCUUAUUAGGGAAAUUAAAGUCCCUAUAUUUAUUAUAUAUUUUUUCCUUAUUAACAGAGUAUUAAUCUAGUAAAAAAUAACCCAGCAGUAUGGAAUUCUCGGGUGCCAA`: “RBNS enrichment (R)” 0.713.
`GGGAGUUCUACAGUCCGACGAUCACUGUCCAAAGAUUAGGGUUGGUGGUGGCAGUGCAGCAGGGGAGGGACAAACAACCAAGCUAUGGGUGACAGAGGCUCUCUCCUGGUGCCUGCACCUGCACUCUAGUGACUGGAAUUCUCGGGUGCCAA`: “RBNS enrichment (R)” 0.271.
`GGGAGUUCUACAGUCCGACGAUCCUUUACCACCUGAGGCCUCCUUAUAUCUCUUCCCAGAGUAAGCUUUGGGAUUGUAGACAUGUGGGAGCUAUGACAGACGUGGCCUGGGGUAGAAAGAUCUCAGGAAAGCAUGGAAUUCUCGGGUGCCAA`: “RBNS enrichment (R)” 0.785.
For `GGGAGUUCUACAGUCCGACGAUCCACUUGGGUAGAAAUACAGUCUGAUCAAGCAACGGUGUAAGGAAAAGUCCCUAAUUCACAACCUCCUUGAUCUUAUGACCCUUGAAAACCUCAAGACCGAAGCCUGACCAUGGAAUUCUCGGGUGCCAA`, “RBNS enrichment (R)” read 0.314.
`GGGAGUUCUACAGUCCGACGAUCAUAAGCUGAAAGUGCAGCUCGCUGCAGGCCCCAGAGCGAGCUUCCCCUCCUCCCUGCUCUCCCAGGCCCCUGCCACAGCCUCUUUCCGUCCCUCUCUUUCUGAUCCAGGCUGGAAUUCUCGGGUGCCAA` — result for “RBNS enrichment (R)”: 0.692.
For `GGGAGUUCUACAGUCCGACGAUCAAAGAGCGGCCCACAGUCAUGCUACUCCCAUUUAGGAACAUGGGCUUACCAGCUCAAGACUUAUCUAACCCUAAAAGCAGGGAAGAACCCGGUGCGGCCUCAGCAGCUUCUGGAAUUCUCGGGUGCCAA`, “RBNS enrichment (R)” read 0.253.

A few entries again (study 3):
With `GAGAACCC` the E-score was -0.233.
The E-score of `ACCTTTCA` is reported as -0.0614.
With `AATGGGAC` the E-score was -0.135.
`CCCCTCTC` gave an E-score of -0.323.
